Published values gathered from unrelated publications.
Numbered parts are unrelated; each lists some results of a single study. Changes are numbered by the printed parent chain.
Chain of UniProt Q9M1R4 (whole entry, looked up): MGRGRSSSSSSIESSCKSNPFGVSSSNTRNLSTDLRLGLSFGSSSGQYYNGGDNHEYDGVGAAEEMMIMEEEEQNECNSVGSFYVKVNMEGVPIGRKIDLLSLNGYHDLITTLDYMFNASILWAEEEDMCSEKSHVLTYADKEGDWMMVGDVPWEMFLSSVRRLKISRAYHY
Chain of UniProt Q9ZTX9 (whole entry, looked up): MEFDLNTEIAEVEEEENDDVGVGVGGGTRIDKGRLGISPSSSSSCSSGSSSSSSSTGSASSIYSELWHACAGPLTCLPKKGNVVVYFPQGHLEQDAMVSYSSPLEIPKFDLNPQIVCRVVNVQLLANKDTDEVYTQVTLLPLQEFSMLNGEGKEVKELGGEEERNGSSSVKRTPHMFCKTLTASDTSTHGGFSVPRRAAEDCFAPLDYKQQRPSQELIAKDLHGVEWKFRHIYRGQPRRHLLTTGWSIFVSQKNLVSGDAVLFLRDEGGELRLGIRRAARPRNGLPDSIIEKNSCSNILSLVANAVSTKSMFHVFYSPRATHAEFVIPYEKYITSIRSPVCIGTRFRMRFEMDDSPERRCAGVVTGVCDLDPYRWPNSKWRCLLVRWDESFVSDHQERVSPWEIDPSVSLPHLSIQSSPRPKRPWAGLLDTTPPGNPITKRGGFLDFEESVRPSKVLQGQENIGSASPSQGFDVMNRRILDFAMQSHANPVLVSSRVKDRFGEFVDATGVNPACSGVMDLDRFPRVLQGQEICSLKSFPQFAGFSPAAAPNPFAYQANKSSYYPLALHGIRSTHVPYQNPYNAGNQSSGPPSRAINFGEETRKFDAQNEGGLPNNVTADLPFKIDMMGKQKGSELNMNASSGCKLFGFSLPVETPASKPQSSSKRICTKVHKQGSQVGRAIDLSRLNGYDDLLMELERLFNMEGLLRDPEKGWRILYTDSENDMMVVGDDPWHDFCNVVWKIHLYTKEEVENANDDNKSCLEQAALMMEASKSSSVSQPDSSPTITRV
Chain of UniProt Q8L7G0 (whole entry, looked up): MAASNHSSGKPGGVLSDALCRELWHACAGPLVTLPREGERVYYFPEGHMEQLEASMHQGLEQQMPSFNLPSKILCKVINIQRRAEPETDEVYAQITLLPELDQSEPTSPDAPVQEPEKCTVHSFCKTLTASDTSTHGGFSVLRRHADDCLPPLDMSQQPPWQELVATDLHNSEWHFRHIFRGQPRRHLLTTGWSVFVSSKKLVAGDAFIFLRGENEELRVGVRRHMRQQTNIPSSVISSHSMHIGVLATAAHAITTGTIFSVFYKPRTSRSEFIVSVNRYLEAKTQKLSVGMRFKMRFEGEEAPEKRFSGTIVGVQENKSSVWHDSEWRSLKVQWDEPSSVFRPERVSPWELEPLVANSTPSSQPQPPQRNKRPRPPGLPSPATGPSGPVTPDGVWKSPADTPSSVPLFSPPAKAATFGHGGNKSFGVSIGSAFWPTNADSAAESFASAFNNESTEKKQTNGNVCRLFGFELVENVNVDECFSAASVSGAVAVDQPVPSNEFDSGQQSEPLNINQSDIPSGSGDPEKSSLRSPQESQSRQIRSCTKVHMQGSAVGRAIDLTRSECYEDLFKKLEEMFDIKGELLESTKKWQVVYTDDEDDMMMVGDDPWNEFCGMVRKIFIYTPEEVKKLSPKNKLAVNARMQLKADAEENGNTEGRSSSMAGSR
Chain of UniProt Q9FGV1 (whole entry, looked up): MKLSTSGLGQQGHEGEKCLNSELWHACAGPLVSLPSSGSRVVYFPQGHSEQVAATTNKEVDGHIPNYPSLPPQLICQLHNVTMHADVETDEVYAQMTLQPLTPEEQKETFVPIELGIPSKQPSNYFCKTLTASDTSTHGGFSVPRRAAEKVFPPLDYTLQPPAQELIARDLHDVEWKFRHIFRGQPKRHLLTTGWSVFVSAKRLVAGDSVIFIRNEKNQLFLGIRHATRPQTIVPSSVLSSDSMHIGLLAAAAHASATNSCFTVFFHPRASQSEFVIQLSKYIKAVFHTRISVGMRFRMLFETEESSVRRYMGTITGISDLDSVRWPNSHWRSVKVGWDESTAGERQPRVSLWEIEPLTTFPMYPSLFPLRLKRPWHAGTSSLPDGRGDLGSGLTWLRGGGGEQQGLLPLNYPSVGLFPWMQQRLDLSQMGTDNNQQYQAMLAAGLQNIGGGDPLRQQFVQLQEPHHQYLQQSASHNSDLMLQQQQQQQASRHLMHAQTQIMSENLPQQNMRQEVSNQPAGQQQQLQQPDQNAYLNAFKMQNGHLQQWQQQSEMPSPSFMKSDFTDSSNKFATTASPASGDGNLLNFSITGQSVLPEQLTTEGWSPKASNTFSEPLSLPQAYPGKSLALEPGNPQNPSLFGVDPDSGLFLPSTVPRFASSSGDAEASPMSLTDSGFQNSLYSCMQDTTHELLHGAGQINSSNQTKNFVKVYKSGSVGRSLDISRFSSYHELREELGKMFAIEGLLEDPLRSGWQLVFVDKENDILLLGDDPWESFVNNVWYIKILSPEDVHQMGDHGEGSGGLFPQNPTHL

Set 1
Target: CCNE2, cyclin fold, Cln2 fusion (human)
Method: yeast growth competition, sequencing
Medium: yeast
Notes: strong parent motif
Reference: not given
Direction: higher = stronger binding
Starting sequence: RBL2 docking peptide (human); STTRRRLFVENDS
| Variant | normalised enrichment score |
| --- | --- |
| L7P | 0.68 |
| L7M | 0.606 |
| L7T | 0.494 |
| N11F | 4.16 |
| R5H | 0.886 |
| R5Q | 0.722 |
| V9L | 3.15 |
| L7D | 0.807 |
| R6G | 0.34 |
| R5D | -0.0423 |
| D12P | 4.48 |
| N11R | 4.14 |
| R5C | 0.745 |
| D12T | 3.32 |
| S13M | 4.11 |
| S13Q | 3.37 |
| N11V | 4.24 |
| T3Q | 0.907 |
| R4P | 0.136 |
| S13C | 4.12 |
| D12I | 3.93 |
| V9D | 3.28 |
| T2E | 3.85 |
| T3V | 7.77 |
| R4L | -0.887 |

Set 2
Target: Fragile X messenger ribonucleoprotein 1, C-terminal low-complexity region (Fmr1, Mus musculus, UniProt P35922)
Method: RNA Bind-n-Seq
Form: RNA
Medium: in vitro
Tested at: 200 nM
Notes: whole 134-nt RNA, ends assumed
Together with: 150 mM LiCl
Reference: input library
Direction: higher = stronger binding
Each molecule: 7-deaza-guanosine replaces G
All sequences stand within: GGGAGUUCUACAGUCCGACGAUC … UGGAAUUCUCGGGUGUCAAGG
| Oligonucleotide | log2 enrichment |
| --- | --- |
| CACAAACAACACGCACCCACACAGACACAGAGGGAAGGGGUUGGGAUGGGGACAGGGUGCACAGCAGGGCGGGGUAGGACCCCAGCCCCU | 0.582 |
| CCUCAAGUCCUGUGCUACACAUCGUAUGUACCGAAUCGGGCCGGCCGGCCGGGAAAGUAUUAUGUUACGCCGUUCGGAUCUGCACUUCCA | 0.755 |
| UCCUCAAGUCCUGUGCUACACAUCGUAUGUACCGAAUCGGAAAGGAGGUGGAAAGUAUUAUGUUACGCCGUUCGGAUCUGCACUUCCAGC | -2.02 |
| GCAGGAAGUAAAAACAAAUGGAAAUGCUUCGGAAAAUGGCAGGGGUGGGGGUUGCUAAGGAAAGGGUGGGAUGGGAGUGGGUAAAGAGUU | 1.24 |
| CCUGUGCUACACAUCGUAUGUACCGAAUCGGGGUUUUUGGGGAAAAAAAGGGGUUUGGGGAAAGUAUUAUGUUACGCCGUUCGGAUCUGC | -2.13 |
| CACAGACAACACGCACCCACACAGACACAGAGGGAAGGGGUUGGGAUGGGGACAGGGUUCACAGCAGGGCGGGGUAGGACCCCAGCCCCU | 0.0671 |
| UCCUGUGCUACACAUCGUAUGUACCGAAUCGGGCCCCCCGGGGCCCCCCGGCCCCCCGGGAAAGUAUUAUGUUACGCCGUUCGGAUCUGC | -2.82 |
| CCUGUGCUACACAUCGUAUGUACCGAAUCGGGGAAAAAGGGGAAAAAAAGGGGUUUGGGGAAAGUAUUAUGUUACGCCGUUCGGAUCUGC | -0.787 |

Set 3
Sequence: B1 (IAA29)
Method: two-hybrid
Reference: out of 4 tests
Direction: higher = firmer interaction
B1: IAA29 (Arabidopsis thaliana, UniProt Q93WC4); chain MELDLGLSLSPHKSSKLGFNFDLNKHCAIEGAASCLGTEKLRFEATFGLGNVEENCYMPKQRLFALNGQPNEEDEDPLESESSIVYDDEEENSEVVGWPPVKTCMIKYGSYHHRHIRNHHHCPYHHRGRRITAMNNNISNPTTATVGSSSSSSISSRSSMYVKVKMDGVAIARKVDIKLFNSYESLTNSLITMFTEYEDCDREDTNYTFTFQGKEGDWLLRGDVTWKIFAESVHRISIIRDRPCAYTRCLF
| partner | conditions | positive tests |
| --- | --- | --- |
| ARF8 699-811 (Arabidopsis thaliana, UniProt Q9FGV1) |  | 2 |
| ARF4 660-788 (Arabidopsis thaliana, UniProt Q9ZTX9) |  | 0 |
| ARF1 538-665 (Arabidopsis thaliana, UniProt Q8L7G0) |  | 0 |
| IAA30 (Arabidopsis thaliana, UniProt Q9M1R4) | weak activation fusion | 1 |

Set 4
Target: ABI1, truncated, D143A, DHFR fusion (Arabidopsis thaliana)
Method: DHFR PCA, deep sequencing
Medium: yeast
Notes: methotrexate growth selection, single substitutions
Together with: (+)-ABA 200 µM
Reference: wild-type fitted maximum
Direction: higher = stronger binding
Starting sequence: PYL1, truncated, DHFR fusion (Arabidopsis thaliana); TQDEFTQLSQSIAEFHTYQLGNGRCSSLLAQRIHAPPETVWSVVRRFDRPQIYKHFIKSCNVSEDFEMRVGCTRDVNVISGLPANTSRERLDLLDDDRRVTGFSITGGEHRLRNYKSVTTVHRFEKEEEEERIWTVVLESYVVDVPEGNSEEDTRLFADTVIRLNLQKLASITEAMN; partner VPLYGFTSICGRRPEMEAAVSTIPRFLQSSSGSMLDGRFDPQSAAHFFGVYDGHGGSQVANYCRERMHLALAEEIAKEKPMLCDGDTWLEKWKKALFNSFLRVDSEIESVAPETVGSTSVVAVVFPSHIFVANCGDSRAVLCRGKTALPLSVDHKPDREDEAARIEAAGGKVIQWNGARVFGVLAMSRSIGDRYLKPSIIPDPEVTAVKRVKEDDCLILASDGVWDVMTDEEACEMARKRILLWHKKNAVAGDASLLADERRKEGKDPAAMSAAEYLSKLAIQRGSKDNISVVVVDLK
| Variant | relative binding score [%] |
| --- | --- |
| Q31C | 55.3 |
| F56S | 10.7 |
| R46W | 58.9 |
| P37G | 58.1 |
| G108Q | 35.3 |
| Q7L | 98.2 |
| K168H | 97.5 |
| R123I | 70 |
| V78Q | 17.5 |
| V121I | 98.5 |
| F56K | -2.49 |
| R46F | 31.3 |
| Q167H | 95.2 |
| P83A | 93.6 |
| M176K | 103 |
